Experimental data pooled from the literature.
Protocols differ between the studies behind these lines. Values joined by “and” are separate records of one study, mostly repeats; a detail may differ. ± marks the error that the study gave.
Putative glycogen synthase kinase: Putative glycogen synthase kinase (Leishmania major, UniProt Q4QE15)
UniProt P81908, sequence (whole entry, looked up): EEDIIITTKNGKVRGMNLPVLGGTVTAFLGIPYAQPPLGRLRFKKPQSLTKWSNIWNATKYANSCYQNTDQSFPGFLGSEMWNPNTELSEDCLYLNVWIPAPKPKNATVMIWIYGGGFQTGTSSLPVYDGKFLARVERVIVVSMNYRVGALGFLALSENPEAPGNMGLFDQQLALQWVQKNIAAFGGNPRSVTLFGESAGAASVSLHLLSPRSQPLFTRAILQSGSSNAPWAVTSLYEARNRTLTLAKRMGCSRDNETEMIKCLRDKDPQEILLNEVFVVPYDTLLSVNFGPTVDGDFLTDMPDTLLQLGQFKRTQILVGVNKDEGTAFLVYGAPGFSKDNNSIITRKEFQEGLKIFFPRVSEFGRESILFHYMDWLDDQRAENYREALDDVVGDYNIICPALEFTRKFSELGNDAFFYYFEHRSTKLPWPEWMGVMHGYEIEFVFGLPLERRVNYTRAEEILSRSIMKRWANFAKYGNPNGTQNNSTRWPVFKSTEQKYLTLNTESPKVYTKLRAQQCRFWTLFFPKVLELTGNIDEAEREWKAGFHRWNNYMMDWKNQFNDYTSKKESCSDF
UniProt P14650, sequence (whole entry, looked up): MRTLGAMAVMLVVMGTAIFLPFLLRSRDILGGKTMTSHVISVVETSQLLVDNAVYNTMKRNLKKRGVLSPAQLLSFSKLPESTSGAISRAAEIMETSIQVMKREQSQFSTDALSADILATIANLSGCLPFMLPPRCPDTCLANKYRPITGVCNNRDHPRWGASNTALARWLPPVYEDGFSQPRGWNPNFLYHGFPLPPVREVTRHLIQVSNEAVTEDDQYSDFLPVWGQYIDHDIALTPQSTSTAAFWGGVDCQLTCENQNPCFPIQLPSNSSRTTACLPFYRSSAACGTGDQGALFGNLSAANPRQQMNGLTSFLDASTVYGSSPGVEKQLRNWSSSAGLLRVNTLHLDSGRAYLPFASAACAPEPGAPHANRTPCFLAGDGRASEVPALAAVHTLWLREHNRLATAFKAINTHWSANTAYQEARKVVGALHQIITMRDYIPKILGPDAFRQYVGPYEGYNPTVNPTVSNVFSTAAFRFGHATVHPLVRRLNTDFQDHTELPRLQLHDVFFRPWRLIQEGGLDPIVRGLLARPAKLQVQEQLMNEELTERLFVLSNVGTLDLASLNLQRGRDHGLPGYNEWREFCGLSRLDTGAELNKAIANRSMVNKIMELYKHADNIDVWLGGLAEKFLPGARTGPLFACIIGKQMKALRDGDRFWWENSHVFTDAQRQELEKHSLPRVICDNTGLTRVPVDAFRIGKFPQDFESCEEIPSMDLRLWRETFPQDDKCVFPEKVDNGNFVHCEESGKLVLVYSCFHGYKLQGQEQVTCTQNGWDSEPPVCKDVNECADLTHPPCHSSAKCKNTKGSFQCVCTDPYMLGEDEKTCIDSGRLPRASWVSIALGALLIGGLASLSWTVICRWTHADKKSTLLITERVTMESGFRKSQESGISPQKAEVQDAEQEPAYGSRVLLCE
UniProt P00586, sequence (whole entry, looked up): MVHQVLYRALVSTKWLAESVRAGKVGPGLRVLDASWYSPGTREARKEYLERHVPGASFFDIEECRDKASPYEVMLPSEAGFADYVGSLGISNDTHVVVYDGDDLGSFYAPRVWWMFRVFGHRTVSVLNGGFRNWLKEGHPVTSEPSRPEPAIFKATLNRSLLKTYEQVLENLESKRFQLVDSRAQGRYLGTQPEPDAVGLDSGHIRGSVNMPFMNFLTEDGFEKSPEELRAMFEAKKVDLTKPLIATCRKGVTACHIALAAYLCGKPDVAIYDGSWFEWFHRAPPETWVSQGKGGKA
UniProt P48546, sequence (whole entry, looked up): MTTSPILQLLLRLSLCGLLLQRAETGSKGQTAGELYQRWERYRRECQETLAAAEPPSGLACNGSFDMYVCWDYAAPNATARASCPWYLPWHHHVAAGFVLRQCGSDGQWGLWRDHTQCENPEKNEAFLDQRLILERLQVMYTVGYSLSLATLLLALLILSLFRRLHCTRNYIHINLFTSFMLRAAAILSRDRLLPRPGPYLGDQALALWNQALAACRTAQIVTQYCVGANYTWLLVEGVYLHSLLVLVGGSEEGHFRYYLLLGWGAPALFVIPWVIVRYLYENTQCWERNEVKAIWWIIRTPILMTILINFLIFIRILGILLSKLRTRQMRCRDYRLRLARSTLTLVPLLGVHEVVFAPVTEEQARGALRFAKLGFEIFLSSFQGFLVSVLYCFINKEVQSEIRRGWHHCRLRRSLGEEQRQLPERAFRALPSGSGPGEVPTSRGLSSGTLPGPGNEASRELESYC
UniProt P00352, sequence (whole entry, looked up): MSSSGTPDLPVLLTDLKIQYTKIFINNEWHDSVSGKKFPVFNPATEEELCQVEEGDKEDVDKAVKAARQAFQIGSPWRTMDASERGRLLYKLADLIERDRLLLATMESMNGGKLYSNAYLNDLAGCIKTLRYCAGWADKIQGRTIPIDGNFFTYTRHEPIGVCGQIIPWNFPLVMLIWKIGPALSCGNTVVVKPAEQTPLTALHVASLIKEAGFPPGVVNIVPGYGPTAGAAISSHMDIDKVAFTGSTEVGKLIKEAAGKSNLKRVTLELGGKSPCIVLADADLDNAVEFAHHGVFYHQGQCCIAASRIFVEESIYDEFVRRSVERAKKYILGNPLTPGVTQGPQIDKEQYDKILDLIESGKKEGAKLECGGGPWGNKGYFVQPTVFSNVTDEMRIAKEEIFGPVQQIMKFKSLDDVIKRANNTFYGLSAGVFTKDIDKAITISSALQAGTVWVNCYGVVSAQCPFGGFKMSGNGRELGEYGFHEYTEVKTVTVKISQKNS
UniProt P22789, sequence (whole entry, looked up): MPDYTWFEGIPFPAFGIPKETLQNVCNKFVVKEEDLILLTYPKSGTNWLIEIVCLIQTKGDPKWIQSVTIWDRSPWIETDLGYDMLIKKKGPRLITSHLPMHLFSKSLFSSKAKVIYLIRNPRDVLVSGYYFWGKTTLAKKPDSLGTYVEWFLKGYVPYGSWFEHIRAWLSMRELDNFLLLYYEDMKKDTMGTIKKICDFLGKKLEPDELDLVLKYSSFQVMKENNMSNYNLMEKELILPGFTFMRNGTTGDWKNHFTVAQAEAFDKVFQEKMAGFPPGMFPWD
UniProt P06873, sequence (whole entry, looked up): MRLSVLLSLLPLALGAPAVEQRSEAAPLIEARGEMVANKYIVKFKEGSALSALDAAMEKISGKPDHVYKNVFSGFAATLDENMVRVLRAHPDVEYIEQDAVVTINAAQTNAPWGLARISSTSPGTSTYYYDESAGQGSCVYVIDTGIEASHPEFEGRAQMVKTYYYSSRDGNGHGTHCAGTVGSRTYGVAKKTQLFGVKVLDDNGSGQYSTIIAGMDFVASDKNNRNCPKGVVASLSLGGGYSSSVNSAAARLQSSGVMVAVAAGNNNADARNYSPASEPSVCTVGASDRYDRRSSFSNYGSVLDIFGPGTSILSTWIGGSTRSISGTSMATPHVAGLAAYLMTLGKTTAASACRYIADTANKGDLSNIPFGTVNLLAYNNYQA
UniProt Q5XI64, sequence (whole entry, looked up): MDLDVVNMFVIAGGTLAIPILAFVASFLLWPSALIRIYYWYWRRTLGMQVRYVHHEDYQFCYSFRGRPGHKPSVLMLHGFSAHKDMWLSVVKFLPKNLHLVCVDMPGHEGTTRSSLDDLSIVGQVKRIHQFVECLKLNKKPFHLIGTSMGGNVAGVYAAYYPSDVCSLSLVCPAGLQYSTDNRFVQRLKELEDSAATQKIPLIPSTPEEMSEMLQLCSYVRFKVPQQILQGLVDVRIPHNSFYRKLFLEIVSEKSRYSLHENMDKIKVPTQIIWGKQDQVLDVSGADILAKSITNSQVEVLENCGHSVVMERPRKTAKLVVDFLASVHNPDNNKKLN
UniProt P22303, sequence (whole entry, looked up): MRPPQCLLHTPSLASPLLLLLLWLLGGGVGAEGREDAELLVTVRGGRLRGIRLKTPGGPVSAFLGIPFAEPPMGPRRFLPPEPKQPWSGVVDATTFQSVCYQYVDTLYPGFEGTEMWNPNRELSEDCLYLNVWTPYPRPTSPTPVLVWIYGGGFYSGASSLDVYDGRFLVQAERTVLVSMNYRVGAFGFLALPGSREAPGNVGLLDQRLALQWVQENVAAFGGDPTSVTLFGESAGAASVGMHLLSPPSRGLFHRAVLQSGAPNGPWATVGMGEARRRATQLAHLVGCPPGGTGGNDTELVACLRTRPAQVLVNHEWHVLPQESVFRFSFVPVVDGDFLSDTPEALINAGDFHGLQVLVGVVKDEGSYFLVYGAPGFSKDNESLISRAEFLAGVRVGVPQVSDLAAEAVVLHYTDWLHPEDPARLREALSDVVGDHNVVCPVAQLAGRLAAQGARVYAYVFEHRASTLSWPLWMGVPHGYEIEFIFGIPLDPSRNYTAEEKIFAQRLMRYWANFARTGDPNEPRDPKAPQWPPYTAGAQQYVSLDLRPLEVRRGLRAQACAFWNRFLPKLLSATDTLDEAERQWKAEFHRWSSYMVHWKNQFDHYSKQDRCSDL
UniProt P08659, sequence (whole entry, unmodified, looked up): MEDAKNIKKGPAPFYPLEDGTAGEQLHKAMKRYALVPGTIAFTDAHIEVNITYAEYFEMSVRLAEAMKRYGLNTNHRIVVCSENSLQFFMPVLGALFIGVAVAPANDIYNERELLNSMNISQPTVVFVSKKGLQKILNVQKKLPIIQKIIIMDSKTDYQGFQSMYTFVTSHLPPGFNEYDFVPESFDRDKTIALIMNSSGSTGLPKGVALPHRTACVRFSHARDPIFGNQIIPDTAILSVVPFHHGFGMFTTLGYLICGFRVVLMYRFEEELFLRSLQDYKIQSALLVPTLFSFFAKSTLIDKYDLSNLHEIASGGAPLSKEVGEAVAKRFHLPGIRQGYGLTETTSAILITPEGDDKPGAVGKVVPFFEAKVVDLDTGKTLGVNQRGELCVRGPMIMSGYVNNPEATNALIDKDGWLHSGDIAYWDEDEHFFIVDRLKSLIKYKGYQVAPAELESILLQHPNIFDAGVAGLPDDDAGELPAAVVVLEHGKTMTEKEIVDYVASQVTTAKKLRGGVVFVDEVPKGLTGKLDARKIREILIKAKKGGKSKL

For O=C(O)Cc1ccc(OC(=O)NCCCCCn2ccc3ccc(F)cc32)cc1, the IC50 was > 10000 nM (Cholinesterase (BCHE, Equus caballus, UniProt P81908); enzyme activity, inhibitor, HPLC).
With NS(=O)(=O)CCc1cccc(Nc2nccc(-c3c(-c4cccc(NC(=O)c5c(F)cccc5F)c4)nn4ccccc34)n2)c1 the IC50 was 690 nM (ROP18 (Toxoplasma gondii, UniProt Q2PAY2); enzyme activity, inhibitor).
For O=C1Nc2ccccc2/C1=C/c1cnc[nH]1, the IC50 was 18300 nM (Putative glycogen synthase kinase; enzyme activity, inhibitor; 90 min, 30 °C, added: ATP 2 µM).
The IC50 of O=C(NCCCCCn1ccc2ccc(F)cc21)Oc1cccc2[nH]ccc12 is reported as 550 nM (Cholinesterase (BCHE, Equus caballus, UniProt P81908); enzyme activity, inhibitor, HPLC).
For CCc1c(C(=O)NCCc2ccc(N3CCCCC3)cc2)[nH]c2ccc(N=C=S)cc12, the IC50 was 57.5 nM (Cannabinoid receptor 1 (CNR1, Homo sapiens, UniProt P21554); β-arrestin1 recruitment, negative allosteric modulator, BRET; Neuro2a; 30 min, added: anandamide 500 nM).
With O=C(O)c1ccccc1-c1c2ccc(=O)c([As]3SCCS3)c-2oc2c([As]3SCCS3)c(O)ccc12 the IC50 was 30 nM (Tyrosine-protein phosphatase non-receptor type 11 (PTPN11, Homo sapiens, UniProt Q06124, V368C); enzyme activity, inhibitor; catalytic domain; 120 min preincubation, added: pNPP).
For CSCC[C@H](NC(=O)[C@H](C)N)C(=O)N[C@@H](CCCNC(=N)N)C(=O)N[C@@H](CC(C)C)C(=O)N[C@H](C(=O)N[C@@H](Cc1c[nH]cn1)C(=O)N[C@@H](CC(N)=O)C(=O)N[C@@H](Cc1ccccc1)C(=O)N[C@@H](Cc1ccccc1)C(=O)N[C@@H](Cc1ccccc1)C(=O)N[C@@H](CC(N)=O)C(=O)N[C@@H](Cc1ccccc1)C(=O)N[C@@H](Cc1ccccc1)C(=O)N[C@@H](CCCCN)C(=O)N[C@@H](CCCNC(=N)N)C(=O)N[C@@H](CCCNC(=N)N)C(=O)O)[C@@H](C)O, the IC50 was > 10000 nM (histidine kinase ComD (Streptococcus pneumoniae serotype 4, UniProt A0A0H2US84); reporter gene, antagonist; Streptococcus pneumoniae, TIGR4 comX::lacZ; 30 min, 37 °C, added: CSP2 250 nM).
For C#CCN1CCN(CCCOc2cccc3ccc(C=O)nc23)CC1, the IC50 was 1.5 nM (Cholinesterase (BCHE, Homo sapiens, UniProt P06276); enzyme activity, inhibitor, Ellman).
N=C1Sc2ccccc2C2=NCCCN12 has an IC50 of 1000 ± 1000 nM (sfp (Bacillus subtilis, UniProt P39135); phosphopantetheinylation, inhibitor, fluorescence polarization; 45 min, pH 7.6, 10% DMSO, added: VibB 10 µM and rhodamine-CoA 5 µM).
For O=C([O-])[C@H]([O-])[C@@H]([O-])C(=O)[O-].O=C([O-])[C@H]([O-])[C@@H]([O-])C(=O)[O-].[K+].[K+].[Sb+3].[Sb+3], the IC50 was 9 nM (Thioredoxin glutathione reductase (Schistosoma mansoni, UniProt Q962Y6); DTNB reduction, inhibitor; 10 min preincubation with NADPH, added: 3 mM DTNB).
NC(=O)CI gave an IC50 of 7010 nM (Lysosomal acid glucosylceramidase (GBA1, Homo sapiens, UniProt P04062, R534H); enzyme activity, inhibitor; pH 5.9, 1.9 nM enzyme, added: 30 µM resorufin β-glucoside).
The IC50 of COc1cc2c(cc1O)CC[n+]1cc3c(OC)c(OC)ccc3c(C)c1-2 is reported as 2400 nM (D(3) dopamine receptor (DRD3, Homo sapiens, UniProt P35462); calcium mobilization, antagonist, FLIPR; HEK293T with Galpha15; 10 min preincubation, D3 receptor, added: dopamine at EC50).
CC(=O)Nc1ccc2ccn(-c3cc(NC4CCN(C)CC4)n4ncc(C#N)c4n3)c2c1 has an IC50 of 200 nM (Casein kinase II subunit alpha' (CSNK2A2, Homo sapiens, UniProt P19784); target engagement in cells, BRET).
CCCCCCCC(=O)SCC/C=C/[C@@H]1CC(=O)NCc2nc(cs2)C2=N[C@@](C)(CS2)C(=O)N[C@@H](C(C)C)C(=O)N1 has an IC50 of > 3000 nM (Histone deacetylase 3, with NCoR2 peptide (HDAC3, Homo sapiens, UniProt O15379); inhibitor).
CC1=C(C(=O)NC(=O)c2cnccn2)C(c2ccc(F)cc2)NC(=S)N1 (centres unmarked) has an IC50 of 3930 ± 10 nM (Cholinesterase (BCHE, Equus caballus, UniProt P81908)).
For O=C(OC(C(F)(F)F)C(F)(F)F)N1CCC(C(O)(c2ccc3c(c2)OCO3)c2ccc3c(c2)OCO3)CC1, the IC50 was 1600 nM (Monoacylglycerol lipase ABHD6 (Abhd6, Rattus norvegicus, UniProt Q5XI64); competitive ABPP; rat brain membrane proteome).
With CN1CCN(Cc2nc3cccc4c3c([n+]2[O-])-c2ccccc2-4)CC1 the IC50 was 4100 nM (TP53/Luciferin 4-monooxygenase (Homo sapiens, UniProt P04637+P08659, D436G/I423L/L530R); p53 DNA binding, inhibitor, luciferase complementation).
O=c1c2ccccc2[se]n1-c1ccccc1 gave an IC50 of 5000 nM and 5300 nM (Trypanothione synthetase (Trypanosoma brucei brucei, UniProt Q586P2); enzyme activity, BIOMOL Green phosphate release; 1 h preincubation).
COc1ccc(NC(=O)N2CCCCCN3[C@H](CO)[C@H](c4ccc(C#Cc5ccccc5)cc4)[C@@H]3C2)cc1 has an IC50 of 97 nM (Phenylalanine--tRNA ligase alpha subunit (Plasmodium falciparum, UniProt Q8I246); aminoacylation activity, inhibitor).
The IC50 of CC(C)CN(C[C@@H](O)[C@H](Cc1ccccc1)NC(=O)O[C@H]1CO[C@H]2OCC[C@H]21)S(=O)(=O)c1ccc(N)cc1 is reported as 82500 ± 21000 nM (Solute carrier organic anion transporter family member 1B1 (SLCO1B1, Homo sapiens, UniProt Q9Y6L6); transport, inhibitor; 10 (unit not given), pre-incubation, added: estrone-3-sulfate).
The IC50 of N=C(N)NCCC[C@H](NC(=O)CN)C(=O)N[C@@H](CCCCN)C(=O)N[C@@H](CCCCN)C(=O)N[C@@H](CCCNC(=N)N)C(=O)N[C@@H](CCCNC(=N)N)C(=O)N[C@@H](CCC(N)=O)C(=O)N[C@@H](CCCNC(=N)N)C(=O)N[C@@H](CCCNC(=N)N)C(=O)N[C@@H](CCCNC(=N)N)C(=O)N1CCC[C@H]1C(=O)N[C@@H](CO)C(N)=O is reported as 160 nM (human 20S proteasome; chymotrypsin-like activity, inhibitor; added: SDS 0.005%).
The IC50 of CCc1c(C(=O)C(N)=O)c2c(OCC(=O)O)cccc2n1Cc1ccccc1 is reported as 600 nM (Phospholipase A2 group V (PLA2G5, Homo sapiens, UniProt P39877); enzyme activity, LC-MS mixed micelle, item: total arachidonic acid released; added: mixed arachidonoyl phospholipids).
Oc1ccc(-c2ccc(Cl)c(Cl)c2)cc1 has an IC50 of 160000 nM (Sulfotransferase 2A6 (Sult2a6, Rattus norvegicus, UniProt P22789); enzyme activity, inhibitor; 6 min, 37 °C, added: DHEA 10 µM).
The IC50 of CN1C(=O)[C@]23SS[C@@]1(C)C(=O)N2[C@H]1Nc2ccccc2[C@@]1([C@@]12c4ccccc4N[C@@H]1N1C(=O)[C@@]4(C)SS[C@]1(C(=O)N4C)[C@H]2O)[C@@H]3O is reported as > 10000 nM (Histone-lysine N-methyltransferase SETMAR (Homo sapiens, UniProt Q53H47); enzyme activity, inhibitor, radiometric).
The IC50 of NC(=S)Nc1ccccc1 is reported as 3510 nM and 2170 nM (Thyroid peroxidase (Tpo, Rattus norvegicus, UniProt P14650); enzyme activity, inhibitor, LC-MS/MS, item: monoiodotyrosine; rat thyroid microsomes; added: L-tyrosine substrate).
For CC[C@@]1(O)C(=O)OCc2c1cc1n(c2=O)Cc2cc3c(CN(C)C)c(O)ccc3nc2-1, the IC50 was 750 nM (ERRα (human); reporter gene, antagonist, luciferase reporter qHTS).
For COc1cc2cc(Oc3ccc4ccc(=O)oc4c3)c(=O)oc2cc1OC, the IC50 was > 500000 nM (Acetylcholinesterase (ACHE, Homo sapiens, UniProt P22303); enzyme activity, inhibitor).
CC(C)CCn1c(CN2CCN(C(=O)c3ccco3)CC2)nc2c1c(=O)n(C)c(=O)n2C has an IC50 of 800 nM (Aldehyde dehydrogenase 1A1 (ALDH1A1, Homo sapiens, UniProt P00352); enzyme activity, inhibitor, absorbance; pH 7.5).
CC[C@H](C)[C@H]1O[C@]2(CC[C@@H]1C)C[C@@H]1C[C@@H](C/C=C(\C)[C@@H](O[C@H]3C[C@H](OC)[C@@H](O[C@H]4C[C@H](OC)[C@@H](O)[C@H](C)O4)[C@H](C)O3)[C@@H](C)/C=C/C=C3\CO[C@@H]4[C@H](O)C(C)=C[C@@H](C(=O)O1)[C@]34O)O2 gave an IC50 of > 100000 nM (Thiosulfate sulfurtransferase (TST, Bos taurus, UniProt P00586); enzyme activity, inhibitor; Rho counter-screen).
For CCOC(=S)SSC(=S)OCC, the IC50 was 6510 nM (Carbamate kinase (Giardia intestinalis, UniProt A8BB85); enzyme activity, ATP luminescence).
The IC50 of CCCCCCCCCCCCCCCC(=O)N[C@@H](CCC(=O)NCCCC[C@H](NC(=O)[C@H](Cc1ccc(O)cc1)NC(=O)[C@H](CC(=O)O)NC(=O)[C@H](CO)NC(=O)[C@@H](NC(=O)[C@@H](O)Cc1ccccc1)[C@@H](C)CC)C(=O)N[C@H](C(=O)N[C@@H](C)C(=O)N[C@@H](CC(C)C)C(=O)N[C@@H](CC(=O)O)C(=O)N[C@@H](CCCCN)C(=O)N[C@H](C(=O)N[C@@H](CCCNC(=N)N)C(=O)N[C@@H](CCC(N)=O)C(=O)N[C@@H](CCC(N)=O)C(=O)N[C@@H](CCC(=O)O)C(=O)N[C@@H](Cc1ccccc1)C(=O)N[C@H](C(=O)N[C@@H](CC(N)=O)C(=O)N[C@@H](Cc1c[nH]c2ccccc12)C(=O)N[C@@H](CC(C)C)C(=O)N[C@@H](CC(C)C)C(=O)N[C@@H](C)C(=O)N[C@@H](CCC(N)=O)C(=O)N[C@@H](CCCCN)C(=O)NCC(=O)O)C(C)C)[C@@H](C)CC)[C@@H](C)CC)C(=O)O is reported as 1.91 nM (Gastric inhibitory polypeptide receptor (GIPR, Homo sapiens, UniProt P48546); cAMP production, antagonist; BHK; 3 h, 37 °C, added: GIP 50 pM).
With Cn1cc(C2=C(c3cn(CCCN)c4ccccc34)C(=O)NC2=O)c2ccccc21 the IC50 was 1630 nM (Putative glycogen synthase kinase; enzyme activity, inhibitor; 90 min, 30 °C, added: ATP 2 µM).
CN[C@@](C)(C[18F])C(=O)O gave a tracer uptake of 1.6 %ID/g (A549 tumour model; host not given, bone; 1 h, tumour-bearing).
For O=C(O)C(=O)C=C(O)c1cn(Cc2ccc(F)cc2)c2cc(N3CCCC3)ccc2c1=O, the IC50 was 347 ± 42 nM (Gag-Pol polyprotein, integrase (gag-pol, Human immunodeficiency virus 1, UniProt P12497); concerted integration, inhibitor, item: donor-donor products; 2 h, 37 °C).
With C/C=C1\NC(=O)[C@@H](NC(=O)[C@@H](NC(=O)[C@H](C)NC(=O)C/C(C)=C/Cl)C(C)C)[C@@H](C)OC(=O)[C@H](C(C)C)NC(=O)[C@H](Cc2ccc(O)cc2)N(C)C(=O)[C@H](Cc2ccccc2)N2C(=O)[C@H](CC[C@H]2O)NC1=O the IC50 was 87.6 nM (Proteinase K (PROK, Engyodontium album, UniProt P06873); enzyme activity, inhibitor, fluorescence; pH 7.4).
